# Measurements pooled from the literature.
# Each line is one published result; not all experiments were run side by side. Several values in a cell are separate wells, animals, samples, runs or records. Numbers after ± are the reported error.
# BCHE: Cholinesterase (BCHE, Equus caballus, UniProt P81908)
# Sequence of UniProt P81908 (whole entry, looked up): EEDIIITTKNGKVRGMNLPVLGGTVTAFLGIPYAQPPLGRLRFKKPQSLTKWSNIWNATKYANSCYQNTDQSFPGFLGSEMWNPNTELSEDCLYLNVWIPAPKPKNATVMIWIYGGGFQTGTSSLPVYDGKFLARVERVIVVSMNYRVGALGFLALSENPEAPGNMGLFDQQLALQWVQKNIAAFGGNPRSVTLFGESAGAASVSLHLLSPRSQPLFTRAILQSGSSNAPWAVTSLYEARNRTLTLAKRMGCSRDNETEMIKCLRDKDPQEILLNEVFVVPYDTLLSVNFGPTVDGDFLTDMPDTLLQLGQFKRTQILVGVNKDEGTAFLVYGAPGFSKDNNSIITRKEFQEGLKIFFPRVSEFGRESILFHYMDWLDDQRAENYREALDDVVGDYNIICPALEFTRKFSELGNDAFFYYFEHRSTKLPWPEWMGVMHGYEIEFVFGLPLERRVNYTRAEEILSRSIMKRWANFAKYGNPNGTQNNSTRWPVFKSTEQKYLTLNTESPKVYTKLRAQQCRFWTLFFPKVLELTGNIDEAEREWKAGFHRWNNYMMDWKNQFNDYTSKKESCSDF
# INSR: Insulin receptor (INSR, Homo sapiens, UniProt P06213)
# Sequence of UniProt Q9Y2J8 (whole entry, looked up): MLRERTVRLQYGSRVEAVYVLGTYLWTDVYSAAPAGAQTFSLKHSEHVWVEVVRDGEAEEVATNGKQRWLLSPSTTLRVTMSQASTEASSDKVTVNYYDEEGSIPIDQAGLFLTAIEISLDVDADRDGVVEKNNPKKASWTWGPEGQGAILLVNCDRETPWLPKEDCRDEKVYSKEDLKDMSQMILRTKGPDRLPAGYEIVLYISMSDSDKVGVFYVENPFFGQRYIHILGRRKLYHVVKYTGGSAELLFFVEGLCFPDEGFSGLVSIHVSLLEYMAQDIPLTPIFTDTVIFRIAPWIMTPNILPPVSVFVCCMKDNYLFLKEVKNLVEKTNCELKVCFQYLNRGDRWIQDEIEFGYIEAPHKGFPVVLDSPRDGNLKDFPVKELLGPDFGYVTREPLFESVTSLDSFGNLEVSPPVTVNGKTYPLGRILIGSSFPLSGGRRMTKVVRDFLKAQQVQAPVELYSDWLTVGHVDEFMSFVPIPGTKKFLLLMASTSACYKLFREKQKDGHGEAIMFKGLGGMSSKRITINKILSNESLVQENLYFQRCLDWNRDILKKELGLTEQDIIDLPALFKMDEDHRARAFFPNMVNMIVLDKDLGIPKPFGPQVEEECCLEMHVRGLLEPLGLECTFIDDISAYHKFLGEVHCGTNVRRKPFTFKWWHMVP
# Sequence of UniProt P06213 (whole entry, looked up): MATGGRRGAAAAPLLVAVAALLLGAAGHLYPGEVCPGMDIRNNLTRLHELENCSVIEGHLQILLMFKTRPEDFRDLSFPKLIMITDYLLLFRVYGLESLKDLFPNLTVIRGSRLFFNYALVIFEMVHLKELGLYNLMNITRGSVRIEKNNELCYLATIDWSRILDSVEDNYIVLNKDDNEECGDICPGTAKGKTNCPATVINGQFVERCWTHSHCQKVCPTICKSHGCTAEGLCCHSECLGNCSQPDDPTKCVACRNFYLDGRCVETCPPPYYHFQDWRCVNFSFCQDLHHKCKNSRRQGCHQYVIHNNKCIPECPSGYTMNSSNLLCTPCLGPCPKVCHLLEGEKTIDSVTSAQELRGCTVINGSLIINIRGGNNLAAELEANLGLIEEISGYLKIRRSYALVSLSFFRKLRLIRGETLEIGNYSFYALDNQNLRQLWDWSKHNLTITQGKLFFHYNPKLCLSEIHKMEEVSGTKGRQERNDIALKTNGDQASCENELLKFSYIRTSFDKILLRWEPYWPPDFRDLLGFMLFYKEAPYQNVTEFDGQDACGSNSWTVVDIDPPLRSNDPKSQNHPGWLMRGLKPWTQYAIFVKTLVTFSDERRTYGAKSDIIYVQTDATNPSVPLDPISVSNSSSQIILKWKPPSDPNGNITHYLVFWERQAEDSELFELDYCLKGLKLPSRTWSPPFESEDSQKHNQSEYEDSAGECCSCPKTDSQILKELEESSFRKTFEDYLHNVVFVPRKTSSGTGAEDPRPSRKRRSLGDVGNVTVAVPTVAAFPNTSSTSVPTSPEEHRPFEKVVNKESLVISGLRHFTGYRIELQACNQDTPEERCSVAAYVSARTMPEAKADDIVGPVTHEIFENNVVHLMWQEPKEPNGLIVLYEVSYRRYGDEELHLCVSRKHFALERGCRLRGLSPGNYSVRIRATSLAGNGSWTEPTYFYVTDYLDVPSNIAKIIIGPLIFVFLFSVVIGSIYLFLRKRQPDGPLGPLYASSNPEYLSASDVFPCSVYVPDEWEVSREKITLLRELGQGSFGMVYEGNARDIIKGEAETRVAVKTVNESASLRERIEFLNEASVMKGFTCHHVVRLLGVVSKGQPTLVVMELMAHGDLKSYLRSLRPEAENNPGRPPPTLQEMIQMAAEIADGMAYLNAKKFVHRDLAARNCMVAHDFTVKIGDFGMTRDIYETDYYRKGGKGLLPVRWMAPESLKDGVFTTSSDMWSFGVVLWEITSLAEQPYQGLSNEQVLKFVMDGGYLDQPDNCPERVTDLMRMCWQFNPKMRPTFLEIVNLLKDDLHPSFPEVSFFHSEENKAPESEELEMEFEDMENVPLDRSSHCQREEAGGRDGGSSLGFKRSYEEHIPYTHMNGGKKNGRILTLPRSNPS
# Sequence of UniProt P25101 (whole entry, looked up): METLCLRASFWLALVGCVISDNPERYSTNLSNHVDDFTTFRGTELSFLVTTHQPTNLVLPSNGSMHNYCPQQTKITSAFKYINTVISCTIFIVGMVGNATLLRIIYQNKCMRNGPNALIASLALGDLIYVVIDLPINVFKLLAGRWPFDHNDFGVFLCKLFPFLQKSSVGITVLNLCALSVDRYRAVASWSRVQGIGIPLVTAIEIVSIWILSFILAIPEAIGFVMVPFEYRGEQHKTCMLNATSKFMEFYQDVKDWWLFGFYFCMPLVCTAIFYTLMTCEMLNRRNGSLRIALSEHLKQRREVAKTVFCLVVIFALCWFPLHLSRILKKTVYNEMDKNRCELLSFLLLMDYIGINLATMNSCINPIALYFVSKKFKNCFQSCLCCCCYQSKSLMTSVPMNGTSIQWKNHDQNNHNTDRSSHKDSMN
# Sequence of UniProt P49683 (whole entry, looked up): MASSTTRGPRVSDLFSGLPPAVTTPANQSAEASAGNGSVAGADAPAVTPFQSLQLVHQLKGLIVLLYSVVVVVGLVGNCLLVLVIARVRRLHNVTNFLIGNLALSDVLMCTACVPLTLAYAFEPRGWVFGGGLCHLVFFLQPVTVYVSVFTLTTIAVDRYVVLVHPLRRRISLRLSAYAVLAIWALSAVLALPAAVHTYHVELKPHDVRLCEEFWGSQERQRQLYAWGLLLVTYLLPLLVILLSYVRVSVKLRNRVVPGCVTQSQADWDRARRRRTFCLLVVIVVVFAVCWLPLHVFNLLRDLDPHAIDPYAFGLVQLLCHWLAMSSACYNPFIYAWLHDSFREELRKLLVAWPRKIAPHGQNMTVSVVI
# Sequence of UniProt P25103 (whole entry, looked up): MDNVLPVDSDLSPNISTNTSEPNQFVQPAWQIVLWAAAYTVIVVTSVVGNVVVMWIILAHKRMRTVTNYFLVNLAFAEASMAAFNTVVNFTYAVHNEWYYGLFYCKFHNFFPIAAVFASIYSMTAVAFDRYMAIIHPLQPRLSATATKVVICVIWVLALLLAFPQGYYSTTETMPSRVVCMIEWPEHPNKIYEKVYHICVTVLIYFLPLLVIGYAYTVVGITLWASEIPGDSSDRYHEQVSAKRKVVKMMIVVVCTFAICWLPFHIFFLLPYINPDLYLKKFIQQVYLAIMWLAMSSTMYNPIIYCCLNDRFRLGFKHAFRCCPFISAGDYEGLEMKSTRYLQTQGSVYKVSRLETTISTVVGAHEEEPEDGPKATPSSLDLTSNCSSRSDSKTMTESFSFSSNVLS
# Sequence of UniProt Q16644 (whole entry, looked up): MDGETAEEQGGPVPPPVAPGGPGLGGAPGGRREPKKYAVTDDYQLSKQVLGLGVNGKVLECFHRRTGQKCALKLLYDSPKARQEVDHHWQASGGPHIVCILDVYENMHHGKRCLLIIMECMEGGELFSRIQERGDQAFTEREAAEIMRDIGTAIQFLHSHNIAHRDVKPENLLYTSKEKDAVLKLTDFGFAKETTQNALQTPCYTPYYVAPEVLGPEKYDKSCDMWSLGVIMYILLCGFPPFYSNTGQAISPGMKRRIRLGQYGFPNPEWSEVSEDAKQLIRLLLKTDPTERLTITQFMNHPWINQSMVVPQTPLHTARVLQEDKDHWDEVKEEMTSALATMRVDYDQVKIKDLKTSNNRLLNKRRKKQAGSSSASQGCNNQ
# Sequence of UniProt P06493 (whole entry, looked up): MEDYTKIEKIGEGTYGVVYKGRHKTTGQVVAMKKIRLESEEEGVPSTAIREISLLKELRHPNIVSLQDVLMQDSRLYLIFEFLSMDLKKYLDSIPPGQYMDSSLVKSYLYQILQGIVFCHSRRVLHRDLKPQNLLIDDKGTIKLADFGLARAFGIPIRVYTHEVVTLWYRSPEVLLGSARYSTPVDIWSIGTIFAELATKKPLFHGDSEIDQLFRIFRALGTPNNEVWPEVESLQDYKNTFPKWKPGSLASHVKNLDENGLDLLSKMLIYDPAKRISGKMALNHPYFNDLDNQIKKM
# Sequence of UniProt Q7M759 (whole entry, looked up): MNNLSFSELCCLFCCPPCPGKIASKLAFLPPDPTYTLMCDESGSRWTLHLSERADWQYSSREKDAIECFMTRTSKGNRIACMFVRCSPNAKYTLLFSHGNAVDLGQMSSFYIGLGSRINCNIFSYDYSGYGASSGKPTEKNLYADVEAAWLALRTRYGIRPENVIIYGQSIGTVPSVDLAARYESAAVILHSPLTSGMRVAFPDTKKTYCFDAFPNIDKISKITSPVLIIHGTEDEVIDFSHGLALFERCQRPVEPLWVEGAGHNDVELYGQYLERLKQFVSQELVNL
Structure (SMILES),target or system,test,system,setting,how to read,quantity,value
CC(C)CC(O)(CC(C)C)c1cn(C(=O)N2CCCC2)nn1,"Alpha/beta hydrolase domain-containing protein 17B (Abhd17b, Mus musculus, UniProt Q7M759)","probe labelling, inhibitor, measured: Fam108b1","mouse, brain","i.p., 0.8 mg/kg, 4 h, protein level","relative to: treated over vehicle mice, lower = stronger inhibition",activity ratio-of-ratios,1.75
CCCCCCCCCCCCCCCCCC(=O)NC[C@H]1CC[C@H](C(=O)N[C@@H](CCC(=O)NCCCOCCOCCOCCCNC(=O)COCC(=O)N[C@@H](Cc2ccc(O)cc2)C(=O)NC(C)(Cc2ccccc2)C(=O)N[C@@H](CC(C)C)C(=O)N[C@@H](CCCC)C(=O)N[C@@H](CCCNC(=N)N)C(=O)N2CCC[C@H]2C(=O)N[C@@H](CCCNC(=N)NC)C(=O)N[C@@H](CC(N)=O)C(N)=O)C(=O)O)CC1 (stereo partly shown),"PRLHR (Homo sapiens, UniProt P49683)","antagonist, DiscoverX GPCR panel",,1 µM,,inhibition,58%
CN(C)[C@H]1C[C@@]23CC[C@@]4(O2)C(=CC[C@]2(C)[C@@H](c5ccc6ccncc6c5)CC[C@H]24)C=C3[C@@H](O)[C@@H]1O,"Non-receptor tyrosine-protein kinase TYK2, JH2 pseudokinase domain (TYK2, Homo sapiens, UniProt P29597)","ATP probe labelling, inhibitor, KiNativ profiling",,1 µM,,inhibition,-0.1%
CN(/N=C/c1ccccc1C(=O)O)c1nc(-c2ccccc2Cl)cs1,"Cyclin-dependent kinase 1, with cyclin A2 (CDK1, Homo sapiens, UniProt P06493)","enzyme activity, inhibitor",,1 µM,,inhibition,-8.43%
Cc1cc(-c2ccc3ccccc3c2)nnc1NCCN1CCN(C)CC1,"ABCB11 (Homo sapiens, UniProt O95342)",transport,,concentration not given,,inhibition,negative
COc1ccccc1-c1n[nH]c2nc(N[C@H]3CC[C@H](NS(=O)(=O)CC(C)C)CC3)ncc12,,"bead binding, competition bead pull-down, measured: LINJ.36.6530",Leishmania donovani extract,10 µM,relative to: vehicle,relative abundance,0.77
C/C(=N\OCCCN1CCCCC1)c1ccc(C(F)(F)F)cc1,"EDNRA (Homo sapiens, UniProt P25101)","antagonist, IP-One",,10 µM,,inhibition,-3.82%
Cc1cc(Oc2nc(N3CC[C@@H](c4ccncc4)C3)ncc2F)[nH]n1,A-431,cell proliferation,,,,IC50,61.7 µM
CCN(CC)CCOc1ccc(-c2nnn(Cc3ccc(OC)cc3)c2N)cc1,"CHRNA7 (Homo sapiens, UniProt P36544)",radioligand binding,HEK293,"10 µM, safety profiling",,inhibition,-8.19%
CC(C)(C)C(=O)OCOP(=O)(OCOC(=O)C(C)(C)C)C1CCCN(O)C1=O (stereo not shown),PC-3,,,,,GI50,2.02 µM
COc1ccccc1-c1n[nH]c2nc(NC3CCN(C(=O)Cc4ccc(F)cc4F)CC3)ncc12,,"bead binding, competition bead pull-down, measured: LINJ.19.1590",Leishmania donovani axenic amastigote extract,10 µM,relative to: vehicle,relative abundance,1.12
CC(C)[C@H]1NC(=O)C[C@H]2/C=C/CCSSC[C@@H](NC1=O)C(=O)N[C@H](Cc1cccc3ccccc13)C(=O)NCC(=O)O2,"MAPKAPK3 (Homo sapiens, UniProt Q16644)","enzyme activity, inhibitor",,10 µM,,inhibition,10.9%
CS(C)(=O)=Nc1ccc(-c2ccc(-c3nc4cc(O[C@@H]5CO[C@H]6[C@@H]5OC[C@H]6O)[nH]c4cc3F)cc2)cc1,SKCa channel,"binding, radioligand binding",,10 µM,,inhibition,5%
CC(=O)NC[C@@H]1[C@@H](O)C[C@H]2[C@H](O)C[C@@H](CO)N12,Spodoptera litura β-N-acetylglucosaminidase,,crude enzyme,"0.107 µM, run 1, with: p-nitrophenyl GlcNAc",,inhibition,16.3%
COc1ccc(F)cc1S(=O)(=O)Nc1cnc2c(c1)C(=O)NCCO2,KATP potassium channel,radioligand binding,,10 µM,,inhibition,9%
O=C(CN1CN(c2ccccc2)C2(CCN(C(=O)c3cnc4[nH]ncc4c3)CC2)C1=O)NCC(F)(F)F,"ULK1 (Homo sapiens, UniProt O75385)",inhibitor,,concentration not given,,inhibition,< 50%
COc1cc([N+](=O)[O-])ccc1-n1cc(CCS(=O)(=O)F)nn1,BCHE,Ellman,horse,20 µM,,inhibition,33.9 ± 2%
Cc1cc(C(=O)Nc2nc3cccc(C)c3n2[C@H]2CCCCN(C(=O)/C=C/CN(C)C)C2)ccn1,Trypanosoma brucei brucei,,CLK1 C215S mutant expressing,"10 x EC50, 24 h",,cell growth,633% and 667%
O=C1NC2(CC2)COc2ncc(F)cc2[C@H]2COCCN2c2ccn3ncc1c3n2,,,"Sprague-Dawley rat, female, uterus","oral, 5 mg/kg/day, 4 weeks dosing, end of recovery",,organ-to-brain weight ratio,38.7 ± 12.5%
Cc1cc(OCC(=O)NCCNC(=O)c2cccc(COc3ccccc3C(N)=O)c2)c2c3c(c(=O)oc2c1)CCC3,"PARP2 (Homo sapiens, UniProt Q9UGN5)","enzyme activity, inhibitor",,0.104 µM,,inhibition,100%
COc1ccccc1-n1cc(CCS(=O)(=O)F)nn1,BCHE,"enzyme activity, inhibitor, Ellman's method",horse serum BuChE,20 µM,,inhibition,21.2 ± 0.8%
C[C@H](NCc1ccc(-c2ccc(C(F)(F)F)cc2)cc1)C(N)=O,INSR,"kinase activity, SafetyScreen panel",,"1 µM, with: 200 µg/mL poly(Glu:Tyr)",,inhibition,-15%
CN[C@@H]1[C@H](O)[C@H](NC)[C@H]2O[C@]3(O)[C@H](O[C@@H]2[C@H]1O)O[C@H](C)C[C@H]3NC(=O)Cc1ccc(Cl)cn1,"TACR1 (Homo sapiens, UniProt P25103)","ligand displacement, radioligand",,10 µM,,inhibition,3%
O=C(O)c1ccccc1/C=N/Nc1nc(-c2ccccc2Cl)cs1,LYN B kinase,"kinase activity, inhibitor",,1 µM,,inhibition,15.4% and 12.2%
O=S(=O)(F)CCc1cn(-c2cnc3ccccc3c2)nn1,BCHE,Ellman,horse,20 µM,,inhibition,46.7 ± 2.2%
O=C1NC(=O)c2c1c1cc(F)c[n+]3c1c1c2c2cc(O)ccc2[n]1[Ru-4]312([N]=C=S)[S+]3CC[S+]1CC[S+]2CC3 (stereo not shown),INSR,enzyme activity,,"100 nM, human enzyme, with: 10 µM ATP",relative to: untreated,remaining activity,96%
CC[C@H](C)[C@H](NC(=O)[C@H](CO)NC(=O)[C@H](Cc1ccc(O)cc1)NC(=O)[C@H](Cc1ccc(O)cc1)NC(=O)[C@H](CC(N)=O)NC(=O)CNC(=O)[C@H](CO)NC(=O)[C@H](Cc1ccc(O)cc1)NC(=O)[C@H](CO)NC(=O)[C@H](CO)NC(=O)[C@H](CC(N)=O)NC(=O)COCCOCCNC(=O)CN1CCN(CC(=O)O)CCN(CC(=O)O)CCN(CC(=O)O)CC1)C(=O)N[C@@H](CC(C)C)C(N)=O [copper-64 labelled],,dynamic PET,"tamoxifen-induced PDAC mouse model, pancreas","0 min, CLDN4-expressing tumours",,maximum pancreas uptake,0 %IA/cc
N[C@H](C(=O)N1CCCC1)C1CCN(c2nccc3c(-c4ncc(Cl)cc4Cl)cccc23)CC1,"PADI2 (Homo sapiens, UniProt Q9Y2J8)","enzyme activity, GDH-coupled",,"0.2458 µM, with: 1.5 mM Ca2+ (high)",,inhibition,-0.0786% and 8.72%

# A few entries again:
Structure (SMILES),target or system,test,system,setting,how to read,quantity,value
C[C@H](NCc1ccc(-c2ccc(C(F)(F)F)cc2)cc1)C(N)=O,INSR,"kinase activity, SafetyScreen panel",,"1 µM, with: 200 µg/mL poly(Glu:Tyr)",,inhibition,-15%
CN[C@@H]1[C@H](O)[C@H](NC)[C@H]2O[C@]3(O)[C@H](O[C@@H]2[C@H]1O)O[C@H](C)C[C@H]3NC(=O)Cc1ccc(Cl)cn1,"TACR1 (Homo sapiens, UniProt P25103)","ligand displacement, radioligand",,10 µM,,inhibition,3%
